Experimental data collected from several papers.
Numbered parts are unrelated; each lists some results of a single study. Several values in a cell are separate wells, animals, samples, runs or records.
Chain of UniProt P10721 (whole entry, unmodified, looked up): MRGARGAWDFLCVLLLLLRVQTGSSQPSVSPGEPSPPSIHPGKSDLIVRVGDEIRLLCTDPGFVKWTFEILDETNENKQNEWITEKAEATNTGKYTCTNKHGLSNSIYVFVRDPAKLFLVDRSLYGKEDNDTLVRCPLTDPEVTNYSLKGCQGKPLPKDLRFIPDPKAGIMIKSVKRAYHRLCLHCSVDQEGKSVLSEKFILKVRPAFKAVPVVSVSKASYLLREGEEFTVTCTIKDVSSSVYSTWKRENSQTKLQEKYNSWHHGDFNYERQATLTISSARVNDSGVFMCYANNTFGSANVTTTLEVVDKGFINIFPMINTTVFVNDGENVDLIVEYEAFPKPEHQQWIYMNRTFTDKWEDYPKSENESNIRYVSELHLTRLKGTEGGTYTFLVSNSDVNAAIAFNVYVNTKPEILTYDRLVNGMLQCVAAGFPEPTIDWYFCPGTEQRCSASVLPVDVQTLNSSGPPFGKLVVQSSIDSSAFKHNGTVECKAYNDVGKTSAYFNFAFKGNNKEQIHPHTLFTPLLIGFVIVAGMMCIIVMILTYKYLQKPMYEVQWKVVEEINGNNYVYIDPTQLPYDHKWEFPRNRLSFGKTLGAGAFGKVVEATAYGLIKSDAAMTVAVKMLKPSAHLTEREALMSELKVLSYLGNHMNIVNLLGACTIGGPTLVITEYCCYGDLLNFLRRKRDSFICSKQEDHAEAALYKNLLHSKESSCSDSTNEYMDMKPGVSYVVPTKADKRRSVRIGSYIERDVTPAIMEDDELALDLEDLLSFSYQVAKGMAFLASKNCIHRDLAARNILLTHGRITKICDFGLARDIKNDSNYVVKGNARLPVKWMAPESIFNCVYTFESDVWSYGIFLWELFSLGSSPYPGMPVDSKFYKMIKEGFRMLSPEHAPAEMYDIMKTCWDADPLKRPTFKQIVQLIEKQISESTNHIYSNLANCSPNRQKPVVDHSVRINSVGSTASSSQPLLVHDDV
Chain of UniProt P07947 (whole entry, looked up): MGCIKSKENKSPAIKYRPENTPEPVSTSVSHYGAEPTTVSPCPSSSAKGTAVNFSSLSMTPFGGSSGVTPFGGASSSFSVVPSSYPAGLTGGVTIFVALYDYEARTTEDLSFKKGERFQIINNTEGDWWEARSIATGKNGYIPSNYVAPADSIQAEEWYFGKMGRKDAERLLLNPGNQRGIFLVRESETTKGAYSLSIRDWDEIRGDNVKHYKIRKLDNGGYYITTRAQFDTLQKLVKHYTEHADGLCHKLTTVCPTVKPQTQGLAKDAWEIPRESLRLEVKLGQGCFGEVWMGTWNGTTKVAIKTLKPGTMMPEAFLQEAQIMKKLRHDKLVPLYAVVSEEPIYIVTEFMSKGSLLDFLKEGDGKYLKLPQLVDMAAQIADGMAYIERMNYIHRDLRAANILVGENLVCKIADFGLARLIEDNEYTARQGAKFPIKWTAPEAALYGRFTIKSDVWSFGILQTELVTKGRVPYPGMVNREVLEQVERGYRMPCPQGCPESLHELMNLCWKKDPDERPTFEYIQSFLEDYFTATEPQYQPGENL
Chain of UniProt Q9UBE8 (whole entry, looked up): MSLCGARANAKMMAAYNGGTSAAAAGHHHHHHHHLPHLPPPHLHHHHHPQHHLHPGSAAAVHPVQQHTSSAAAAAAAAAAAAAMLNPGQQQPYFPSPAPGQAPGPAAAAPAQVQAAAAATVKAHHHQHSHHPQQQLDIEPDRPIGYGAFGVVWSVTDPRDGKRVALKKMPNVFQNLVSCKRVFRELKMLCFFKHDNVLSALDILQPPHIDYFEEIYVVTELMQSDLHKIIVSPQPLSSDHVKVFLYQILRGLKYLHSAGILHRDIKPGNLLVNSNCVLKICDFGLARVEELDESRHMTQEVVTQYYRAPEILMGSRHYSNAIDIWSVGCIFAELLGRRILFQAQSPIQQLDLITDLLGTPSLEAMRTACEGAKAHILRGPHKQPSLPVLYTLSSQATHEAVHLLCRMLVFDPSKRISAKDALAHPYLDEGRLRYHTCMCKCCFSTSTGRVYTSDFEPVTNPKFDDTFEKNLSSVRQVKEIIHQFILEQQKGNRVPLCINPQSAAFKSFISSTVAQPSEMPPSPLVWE
Chain of UniProt Q16584 (whole entry, looked up): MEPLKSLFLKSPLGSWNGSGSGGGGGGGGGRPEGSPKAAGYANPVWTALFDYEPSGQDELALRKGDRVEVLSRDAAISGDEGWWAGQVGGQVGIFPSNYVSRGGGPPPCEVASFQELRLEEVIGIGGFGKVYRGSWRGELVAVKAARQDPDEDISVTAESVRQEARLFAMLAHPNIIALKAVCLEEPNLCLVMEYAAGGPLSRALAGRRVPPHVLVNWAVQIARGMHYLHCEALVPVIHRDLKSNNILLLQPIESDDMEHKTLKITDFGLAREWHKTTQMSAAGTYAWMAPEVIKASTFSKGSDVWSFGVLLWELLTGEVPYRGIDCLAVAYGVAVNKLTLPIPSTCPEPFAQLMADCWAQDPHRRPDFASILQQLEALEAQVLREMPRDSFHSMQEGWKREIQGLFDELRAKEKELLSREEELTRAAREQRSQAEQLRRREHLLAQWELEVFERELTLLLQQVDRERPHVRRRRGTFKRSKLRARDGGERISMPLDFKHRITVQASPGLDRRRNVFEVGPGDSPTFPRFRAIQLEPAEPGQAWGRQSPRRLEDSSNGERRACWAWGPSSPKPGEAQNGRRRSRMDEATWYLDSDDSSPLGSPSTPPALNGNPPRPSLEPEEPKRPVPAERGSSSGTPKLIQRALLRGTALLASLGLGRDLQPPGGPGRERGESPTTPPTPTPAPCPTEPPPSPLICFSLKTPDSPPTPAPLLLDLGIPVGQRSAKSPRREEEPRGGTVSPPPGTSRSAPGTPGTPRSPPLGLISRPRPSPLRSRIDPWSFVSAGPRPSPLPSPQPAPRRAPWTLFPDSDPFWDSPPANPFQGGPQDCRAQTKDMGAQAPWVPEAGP
Chain of UniProt O14733 (whole entry, looked up): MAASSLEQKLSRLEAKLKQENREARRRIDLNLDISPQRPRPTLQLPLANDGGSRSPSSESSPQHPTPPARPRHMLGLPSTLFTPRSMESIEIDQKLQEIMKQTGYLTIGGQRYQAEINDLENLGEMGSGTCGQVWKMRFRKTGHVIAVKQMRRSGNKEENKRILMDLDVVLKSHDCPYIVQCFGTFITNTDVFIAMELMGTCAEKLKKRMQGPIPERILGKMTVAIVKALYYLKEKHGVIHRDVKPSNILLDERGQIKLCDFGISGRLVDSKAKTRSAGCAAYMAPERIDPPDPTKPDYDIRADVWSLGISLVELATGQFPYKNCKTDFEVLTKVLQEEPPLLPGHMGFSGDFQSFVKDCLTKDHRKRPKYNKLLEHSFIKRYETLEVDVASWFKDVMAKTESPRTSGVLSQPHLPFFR
Chain of UniProt Q00532 (whole entry, looked up): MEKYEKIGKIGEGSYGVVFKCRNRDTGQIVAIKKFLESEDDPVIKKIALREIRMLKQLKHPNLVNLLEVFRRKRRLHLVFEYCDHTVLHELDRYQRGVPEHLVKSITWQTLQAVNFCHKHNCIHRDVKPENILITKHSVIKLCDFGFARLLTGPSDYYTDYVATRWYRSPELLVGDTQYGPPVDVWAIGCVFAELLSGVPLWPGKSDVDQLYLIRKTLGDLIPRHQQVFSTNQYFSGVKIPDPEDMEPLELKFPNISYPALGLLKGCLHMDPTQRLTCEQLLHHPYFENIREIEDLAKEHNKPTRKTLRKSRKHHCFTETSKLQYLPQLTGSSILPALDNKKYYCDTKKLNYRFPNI
Chain of UniProt P04049 (whole entry, looked up): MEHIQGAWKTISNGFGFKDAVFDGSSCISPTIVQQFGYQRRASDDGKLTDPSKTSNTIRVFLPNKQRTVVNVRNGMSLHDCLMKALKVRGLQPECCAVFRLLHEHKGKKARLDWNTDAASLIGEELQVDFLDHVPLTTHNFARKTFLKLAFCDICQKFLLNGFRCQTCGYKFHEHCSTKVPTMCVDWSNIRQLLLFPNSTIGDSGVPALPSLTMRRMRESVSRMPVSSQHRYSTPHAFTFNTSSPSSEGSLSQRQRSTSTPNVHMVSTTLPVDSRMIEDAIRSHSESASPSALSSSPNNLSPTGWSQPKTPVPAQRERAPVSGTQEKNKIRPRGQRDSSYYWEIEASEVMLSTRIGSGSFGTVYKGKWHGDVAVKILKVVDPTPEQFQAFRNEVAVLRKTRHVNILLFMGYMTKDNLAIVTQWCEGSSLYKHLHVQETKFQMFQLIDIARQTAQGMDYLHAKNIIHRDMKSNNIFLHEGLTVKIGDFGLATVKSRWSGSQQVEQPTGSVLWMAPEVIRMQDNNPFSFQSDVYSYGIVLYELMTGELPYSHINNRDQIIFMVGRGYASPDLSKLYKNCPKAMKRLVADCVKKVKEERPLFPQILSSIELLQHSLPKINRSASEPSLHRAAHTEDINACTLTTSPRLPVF

Study 1
Target: Activin receptor type-1 (ACVR1, Homo sapiens, UniProt Q04771)
Chain of UniProt Q04771 (whole entry, looked up): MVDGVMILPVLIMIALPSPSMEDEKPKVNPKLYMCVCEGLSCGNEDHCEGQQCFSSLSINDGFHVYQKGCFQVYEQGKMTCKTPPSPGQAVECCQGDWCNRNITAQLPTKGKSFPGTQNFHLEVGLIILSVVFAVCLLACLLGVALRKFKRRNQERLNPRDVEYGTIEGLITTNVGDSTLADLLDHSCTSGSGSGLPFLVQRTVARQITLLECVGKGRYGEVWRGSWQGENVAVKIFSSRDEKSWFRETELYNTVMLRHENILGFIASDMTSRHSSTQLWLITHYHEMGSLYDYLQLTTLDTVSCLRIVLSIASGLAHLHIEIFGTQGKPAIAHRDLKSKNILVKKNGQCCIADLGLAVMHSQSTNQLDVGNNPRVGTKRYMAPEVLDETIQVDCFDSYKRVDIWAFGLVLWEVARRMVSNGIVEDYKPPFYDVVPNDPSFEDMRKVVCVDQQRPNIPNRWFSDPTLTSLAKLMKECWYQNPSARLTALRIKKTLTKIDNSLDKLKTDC
Read-out: enzyme activity
Mode: inhibitor
Tested at: 0.5 µM
Relative to: control
The remaining activity of `Nc1cccc(-c2cc3c(Oc4cccc(O)c4)ncnc3[nH]2)c1` is reported as 183%.
With `O=C1C(Cl)=C(N2C(=O)CCC2=O)C(=O)c2ccccc21` the remaining activity was 96.9%.
With `Cc1nc2cc3nc(-c4cccs4)cnc3cc2n1C` the remaining activity was 99.3%.
For `O=c1cc(-c2cccc3c2Sc2ccccc2S3)oc(N2CCOCC2)c1`, the remaining activity was 97.5%.
`O=C(Nc1cccc(Nc2nccc(Nc3cccc(C(F)(F)F)c3)n2)c1)C1CC1` gave a remaining activity of 111%.
`CCN(CC)CCNC(=O)c1c(C)[nH]c(/C=C2\C(=O)Nc3ccc(Cl)cc32)c1C` gave a remaining activity of 108%.
The remaining activity of `CN([C@@H](Cc1ccc(OS(=O)(=O)c2cccc3cnccc23)cc1)C(=O)N1CCN(c2ccccc2)CC1)S(=O)(=O)c1cccc2cnccc12` is reported as 95%.
With `CN(C)C[C@H]1CCn2c(c(C3=C(c4cn(C)c5ccccc45)C(=O)NC3=O)c3ccccc32)C1` the remaining activity was 93.3%.
With `Ic1cccc(CSc2nnc(-c3ccncc3)o2)c1` the remaining activity was 97.4%.
The remaining activity of `N#Cc1c(NC(=O)c2cccc3ccccc23)sc2c1CCCC2` is reported as 72.9%.
For `CCOc1nc(NC(=O)Cc2cc(OC)ccc2OC)cc(N)c1C#N`, the remaining activity was 95.2%.
With `COc1cc2ncnc(Nc3cccc(Cl)c3)c2cc1OC` the remaining activity was 108%.
`COc1cc2c(cc1OC)-c1[nH]nc(Nc3cccc(F)c3)c1C2` gave a remaining activity of 107%.
`Cc1cn(-c2cc(NC(=O)c3ccc(C)c(Nc4nccc(-c5cccnc5)n4)c3)cc(C(F)(F)F)c2)cn1` gave a remaining activity of 112%.
For `C[C@@H]1CCN(C(=O)CC#N)C[C@@H]1N(C)c1ncnc2[nH]ccc12`, the remaining activity was 104%.
With `O=C(NC(NC(=S)Nc1ccc(F)c([N+](=O)[O-])c1)C(Cl)(Cl)Cl)C(c1ccccc1)c1ccccc1` (stereo not shown) the remaining activity was 98.8%.
The remaining activity of `CCN(CC)C(=O)c1ccc(Nc2nc(OCC3CCCCC3)c3[nH]cnc3n2)cc1` is reported as 98.8%.
For `N#C/C(=C\c1ccc(O)c(O)c1)C(=O)NCc1ccccc1`, the remaining activity was 91.3%.
`CCN(CC)CCNC(=O)c1c(C)[nH]c(/C=C2\C(=O)Nc3ccc(F)cc32)c1C` has a remaining activity of 121%.
With `COc1cc2ncnc(Nc3ccc(O)c(Br)c3)c2cc1OC` the remaining activity was 128%.
`c1ccc(-c2cnc(Nc3ccc(OCCN4CCCC4)cc3)s2)cc1` has a remaining activity of 164%.
For `Cn1nc2c3c(cccc31)C(=O)c1ccccc1-2`, the remaining activity was 110%.
`O=C1c2ccccc2-c2n[nH]c3cccc1c23` gave a remaining activity of 134%.
The remaining activity of `Cc1cc2ncc(-c3ccccc3)nc2cc1C` is reported as 91.8%.
`c1ccc(-c2[nH]ncc2-c2ccnc3ccccc23)nc1` has a remaining activity of 106%.

Study 2
Cell line: Huh-7
Tested at: 10 µM
Time: 24 h
With `CC(N)C(=O)OC(C)(C)Cc1ccc(Cl)cc1` (stereo not shown) the viability was 96.5%.
`Clc1ccccc1CN1CCc2sccc2C1` has a viability of 99.4%.
`CO[C@H]1/C=C/O[C@@]2(C)Oc3c(C)c(O)c4c(O)c(c(/C=N/N5CCN(C)CC5)c(O)c4c3C2=O)NC(=O)/C(C)=C\C=C\[C@H](C)[C@H](O)[C@@H](C)[C@@H](O)[C@@H](C)[C@H](OC(C)=O)[C@@H]1C` has a viability of 97%.
`C=CC1=C(C(=O)O)N2C(=O)[C@@H](NC(=O)/C(=N\O)c3csc(N)n3)[C@H]2SC1` has a viability of 96.8%.
The viability of `NC(=O)OCC(COC(N)=O)c1ccccc1` is reported as 101%.
`Cc1cc(C2CCCCC2)n(O)c(=O)c1` has a viability of 56.2%.
With `CCCCCC(=O)O[C@]1(C(C)=O)CC[C@H]2[C@@H]3CCC4=CC(=O)CC[C@]4(C)[C@H]3CC[C@@]21C` the viability was 63.8%.
For `CCn1cc(C(=O)O)c(=O)c2cc3c(cc21)OCO3`, the viability was 95.2%.
With `Nc1c2ccccc2nc2ccccc12` the viability was 63.4%.
With `CCOC(=O)c1ccc(O)cc1` the viability was 101%.
`NC[C@H](O)c1ccc(O)c(O)c1` gave a viability of 102%.
With `CCN(CCO)CCCC(C)Nc1ccnc2cc(Cl)ccc12` (stereo not shown) the viability was 96.3%.
`Oc1ccc(O)cc1` has a viability of 80.3%.
The viability of `CN(C)CCCC1(c2ccc(F)cc2)OCc2cc(C#N)ccc21` (stereo not shown) is reported as 101%.

Study 3
Cell line: mouse MPNST tumor cells
Method: high-content immunofluorescence imaging
Measured: nuclear SOX9
Tested at: 10 µM
Time: 12 h
Setting: mean of 2 replicates
Relative to: DMSO control
Direction: higher = more nuclear SOX9
For `CC(=O)N(C)c1cccc(-c2ccc3nnc(C)n3n2)c1`, “nuclear SOX9 intensity” read 100 % of DMSO.
`Cn1cc(-c2ccc3c(c2)CCN3C(=O)Cc2cccc(C(F)(F)F)c2)c2c(N)ncnc21` — result for “nuclear SOX9 intensity”: 100 % of DMSO.
`N[C@@H](C(=O)N[C@@H]1C(=O)N2C(C(=O)O)=C(Cl)CS[C@H]12)c1ccccc1`: “nuclear SOX9 intensity” 98.7 % of DMSO.
For `NC1CCN(c2c(F)cc3c(=O)c(C(=O)O)cn(C4CC4)c3c2Cl)C1` (stereo not shown), “nuclear SOX9 intensity” read 88.5 % of DMSO.
`O=C(CCCN1CCC(O)(c2ccc(Br)cc2)CC1)c1ccc(F)cc1`: “nuclear SOX9 intensity” 237 % of DMSO.
Under “nuclear SOX9 intensity”, `Nc1nc2[nH]cc(CCc3ccc(C(=O)N[C@@H](CCC(=O)O)C(=O)O)cc3)c2c(=O)[nH]1` is recorded as 139 % of DMSO.
For `COc1ccc(C(=O)C2CC2c2ccc(Cl)cc2)cc1` (stereo not shown), “nuclear SOX9 intensity” read 106 % of DMSO.
Under “nuclear SOX9 intensity”, `C=C(CC(=O)OCCCCCCCC)C(=O)O` is recorded as 94.5 % of DMSO.
Under “nuclear SOX9 intensity”, `CC[C@@H]1C(=O)OC[C@@H]1Cc1cncn1C` is recorded as 106 % of DMSO and 84.8 % of DMSO.
Under “nuclear SOX9 intensity”, `O=C(O)Cc1cccc(OCCCN(Cc2cccc(C(F)(F)F)c2Cl)CC(c2ccccc2)c2ccccc2)c1` is recorded as 101 % of DMSO.
`Cc1cccc(-c2[nH]c(C(C)(C)C)nc2-c2ccc3c(c2)OCO3)n1` — result for “nuclear SOX9 intensity”: 96.7 % of DMSO.
`NC1(C(=O)N[C@@H](CCO)c2ccc(Cl)cc2)CCN(c2ncnc3[nH]ccc23)CC1`: “nuclear SOX9 intensity” 109 % of DMSO.
`O=C(O)COC(=O)Cc1ccccc1Nc1c(Cl)cccc1Cl` — result for “nuclear SOX9 intensity”: 94.6 % of DMSO.
`CC[S+]([O-])c1nc(-c2cccc(OCc3ccccc3)c2)cc(C(F)(F)F)n1` (stereo not shown): “nuclear SOX9 intensity” 120 % of DMSO.
Under “nuclear SOX9 intensity”, `Clc1ccc(Cn2c(CN3CCCC3)nc3ccccc32)cc1` is recorded as 124 % of DMSO and 122 % of DMSO.

Study 4
Compound: CC(=O)N1CCC(c2ccc(C(=O)NC3=NCCN3)cc2C(F)(F)F)CC1
Read-out: cell-free assay
Method: competition with immobilised ligand
Tested at: 1 µM
Serine/threonine-protein kinase BRSK1 (BRSK1, Homo sapiens, UniProt Q8TDC3) — remaining binding: 100%.
For Mast/stem cell growth factor receptor Kit (KIT, Homo sapiens, UniProt P10721, T670I/V559D): remaining binding read 100%.
Tyrosine-protein kinase Yes (YES1, Homo sapiens, UniProt P07947) — remaining binding: 100%.
The remaining binding was 100% (RAF proto-oncogene serine/threonine-protein kinase (RAF1, Homo sapiens, UniProt P04049)).
For Mast/stem cell growth factor receptor Kit (KIT, Homo sapiens, UniProt P10721, V559D/V654A): remaining binding read 100%.
For Citron Rho-interacting kinase (CIT, Homo sapiens, UniProt O14578): remaining binding read 100%.
Phosphatidylinositol 4,5-bisphosphate 3-kinase catalytic subunit alpha isoform (PIK3CA, Homo sapiens, UniProt P42336, H1047Y) — remaining binding: 100%.
It gave 85% for remaining binding (Serine/threonine-protein kinase 38 (STK38, Homo sapiens, UniProt Q15208)).
Epidermal growth factor receptor (EGFR, Homo sapiens, UniProt P00533, L861Q) — remaining binding: 100%.
It gave 91% for remaining binding (Serine/threonine-protein kinase LATS2 (LATS2, Homo sapiens, UniProt Q9NRM7)).
Epithelial discoidin domain-containing receptor 1 (DDR1, Homo sapiens, UniProt Q08345) — remaining binding: 100%.
The remaining binding was 100% (Serine/threonine-protein kinase NLK (NLK, Homo sapiens, UniProt Q9UBE8)).
The remaining binding was 50% (Phosphatidylinositol 4-phosphate 3-kinase C2 domain-containing subunit beta (PIK3C2B, Homo sapiens, UniProt O00750)).
For Dual specificity mitogen-activated protein kinase kinase 7 (MAP2K7, Homo sapiens, UniProt O14733): remaining binding read 100%.
It gave 94% for remaining binding (Receptor tyrosine-protein kinase erbB-3 (ERBB3, Homo sapiens, UniProt P21860)).
For Serine/threonine-protein kinase TAO1 (TAOK1, Homo sapiens, UniProt Q7L7X3): remaining binding read 100%.
The remaining binding was 100% (Mitogen-activated protein kinase kinase kinase 11 (MAP3K11, Homo sapiens, UniProt Q16584)).
1-phosphatidylinositol 3-phosphate 5-kinase (PIKFYVE, Homo sapiens, UniProt Q9Y2I7) — remaining binding: 88%.
It gave 100% for remaining binding (Uncharacterized serine/threonine-protein kinase SBK3 (SBK3, Homo sapiens, UniProt P0C264)).
For Myosin light chain kinase, smooth muscle (MYLK, Homo sapiens, UniProt Q15746): remaining binding read 90%.
Dual specificity mitogen-activated protein kinase kinase 2 (MAP2K2, Homo sapiens, UniProt P36507) — remaining binding: 100%.
The remaining binding was 100% (Ribosomal protein S6 kinase alpha-3, N-terminal kinase domain (RPS6KA3, Homo sapiens, UniProt P51812)).
BDNF/NT-3 growth factors receptor (NTRK2, Homo sapiens, UniProt Q16620) — remaining binding: 100%.
Cyclin-dependent kinase-like 1 (CDKL1, Homo sapiens, UniProt Q00532) — remaining binding: 100%.
It gave 100% for remaining binding (Mast/stem cell growth factor receptor Kit (KIT, Homo sapiens, UniProt P10721, A829P)).

Excerpt of the above (study 4):
Tyrosine-protein kinase Yes (YES1, Homo sapiens, UniProt P07947) — remaining binding: 100%.
The remaining binding was 100% (RAF proto-oncogene serine/threonine-protein kinase (RAF1, Homo sapiens, UniProt P04049)).
For Mast/stem cell growth factor receptor Kit (KIT, Homo sapiens, UniProt P10721, V559D/V654A): remaining binding read 100%.
For Citron Rho-interacting kinase (CIT, Homo sapiens, UniProt O14578): remaining binding read 100%.
Phosphatidylinositol 4,5-bisphosphate 3-kinase catalytic subunit alpha isoform (PIK3CA, Homo sapiens, UniProt P42336, H1047Y) — remaining binding: 100%.
It gave 85% for remaining binding (Serine/threonine-protein kinase 38 (STK38, Homo sapiens, UniProt Q15208)).
Epidermal growth factor receptor (EGFR, Homo sapiens, UniProt P00533, L861Q) — remaining binding: 100%.
It gave 91% for remaining binding (Serine/threonine-protein kinase LATS2 (LATS2, Homo sapiens, UniProt Q9NRM7)).
Epithelial discoidin domain-containing receptor 1 (DDR1, Homo sapiens, UniProt Q08345) — remaining binding: 100%.
The remaining binding was 100% (Serine/threonine-protein kinase NLK (NLK, Homo sapiens, UniProt Q9UBE8)).
